Experimental data collected from several papers.
Every numbered part comes from another study and shows a few of its results, in no order.

Block 1 — observed: peptide-MHC binding; molecule type: peptide; tested at: concentration not given
Target: HLA class I histocompatibility antigen, A alpha chain, allele A*80:01 (Homo sapiens, UniProt P04439)
Molecule | binding
RVLTARKTV | inactive
LMRRFRFTV | inactive
VWKQLFPEL | inactive
SMLCWLGMT | inactive
GIADFIIFK | inactive

Block 2 — target: UBE2A UBC core domain (UniProt P49459); technique: yeast two-hybrid; matrix: yeast; notes: mostly zero background; relative to: not given; reading: higher = stronger interaction
Sequence of UniProt P49459 (whole entry, looked up): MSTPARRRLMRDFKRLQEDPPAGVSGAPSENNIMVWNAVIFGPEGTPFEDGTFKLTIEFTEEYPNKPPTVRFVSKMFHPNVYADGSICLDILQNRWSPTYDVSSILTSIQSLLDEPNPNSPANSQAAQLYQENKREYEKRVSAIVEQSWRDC
B1: RNF208 RING domain (UniProt Q9H0X6); chain SSAAAGEPLECPTCGHSYNVTQRRPRVLSCLHSVCEQCLQILYESCPKYKFISCPTCRRETVLFTDYG
B2: SH3RF2 RING domain (UniProt Q8TEC5); chain DDLTLLDLLECPVCFEKLDVTAKVLPCQHTFCKPCLQRVFKAHKELRCPECRTPVFSNIEAL
B3: TRIM13 RING domain (UniProt O60858); chain MELLEEDLTCPICCSLFDDPRVLPCSHNFCKKCLEGILEGSVRNSLWRPAPFKCPTCRKETSATGINS
B4: TRIM4 RING domain (UniProt Q9C037); chain EAEDIQEELTCPICLDYFQDPVSIECGHNFCRGCLHRNWAPGGGPFPCPECRHPSAPAALRP
B5: RC3H1 RING domain (UniProt Q5TC82); chain QAPQWTDFLSCPICTQTFDETIRKPISLGCGHTVCKMCLNKLHRKACPFDQTTINTDIELL
B6: TRIML1 RING domain (UniProt Q8N9V2); chain LMENLREELTCFICLDYFSSPVTTECGHSFCLVCLLRSWEEHNTPLSCPECWRTLEGPHFQS
B7: VPS41 RING domain (UniProt P49754); chain KGVLVDEENICESCLSPILPSDAAKPFSVVVFHCRHMFHKECLPMPSMNSAAQFCNICSAKNRGPGSAI
B8: TRAF5 RING domain (UniProt O00463); chain FVERLEERYKCAFCHSVLHNPHQTGCGHRFCQHCILSLRELNTVPICPVDKEVIKSQEVFK
B9: RNF111 RING domain (UniProt Q6ZNA4); chain EGTEEDTEEKCTICLSILEEGEDVRRLPCMHLFHQVCVDQWLITNKKCPICRVDIEAQLPSE
B10: TRIM5 RING domain (UniProt Q9C035); chain LREVKLSPEGQKVDHCARHGEKLLLFCQEDGKVICWLCERSQEHRGHHTFLTEEVAREYQVKL
B11: TRIM40 RING domain (UniProt Q6P9F5); chain LQKDNQEEGVCPICQESLKEAVSTNCGHLFCRVCLTQHVEKASASGVFCCPLCRKPCSEEVLG
Molecule | lacZ reporter activity
MPIRALCTICSDFFDHSRDVAAIHCGHTFHLQCLIQWFETAPSRTCPQCRIQVGKRTIIN (TRAIP RING domain (UniProt Q9BWF2)) | 0
DHGAVGQEMCCPICCSEYVKGEVATELPCHHYFHKPCVSIWLQKSGTCPVCRCMFPPPL (PJA1 RING domain (UniProt Q8NG27)) | 0
B1 (RNF208 RING domain) | 0
B2 (SH3RF2 RING domain) | 0
VEPSEENSKDCVVCQNGTVNWVLLPCRHTCLCDGCVKYFQQCPMCRQFVQESFALC (CGRRF1 RING domain (UniProt Q99675)) | 0
B3 (TRIM13 RING domain) | 0
B4 (TRIM4 RING domain) | 0
B5 (RC3H1 RING domain) | 0
PAELEVQASECVVCLEREAQMIFLNCGHVCCCQQCCQPLRTCPLCRQDIAQRLRIY (LRSAM1 RING domain (UniProt Q6UWE0)) | 0
B6 (TRIML1 RING domain) | 0
B7 (VPS41 RING domain) | 0
ASLPTSEEDLCPICYAHPISAVFQPCGHKSCKACINQHLMNNKDCFFCKTTIVSVEDWE (RNF123 RING domain (UniProt Q5XPI4)) | 0
B8 (TRAF5 RING domain) | 0
B9 (RNF111 RING domain) | 0
B10 (TRIM5 RING domain) | 0
B11 (TRIM40 RING domain) | 0

Block 3 — technique: RNA Bind-n-Seq; molecule type: RNA; matrix: in vitro; tested at: not given; relative to: input RNA pool; reading: higher = stronger binding
Target: RING finger protein unkempt homolog, zinc fingers 1-6, GST-SBP tag (UNK, Homo sapiens, UniProt Q9C0B0, residues 30-357)
Notes: RNA with constant flanks, human and mouse sites, ends assumed
Target sequence (chain): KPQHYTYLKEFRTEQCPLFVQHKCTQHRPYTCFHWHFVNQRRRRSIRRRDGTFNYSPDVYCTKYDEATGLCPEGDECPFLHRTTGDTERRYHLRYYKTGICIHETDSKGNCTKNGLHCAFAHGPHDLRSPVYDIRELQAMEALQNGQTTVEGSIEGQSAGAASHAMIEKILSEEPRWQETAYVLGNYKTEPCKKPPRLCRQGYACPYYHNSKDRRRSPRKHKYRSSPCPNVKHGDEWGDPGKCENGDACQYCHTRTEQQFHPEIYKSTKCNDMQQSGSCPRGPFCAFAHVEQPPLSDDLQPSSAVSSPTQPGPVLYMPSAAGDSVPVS
Oligonucleotide | bound/input enrichment
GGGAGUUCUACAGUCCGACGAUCUUACCUUUAUUUUUAAAAAAUGGGCAUUUUGUAACAUUCCUUCAGGAAGAAUGGAAGUGUGUAUGUUUUUCUGCAUGGUGUGAGCAUUGUGAGUCUUACAAGAUUACUGCAGUUUUCAGACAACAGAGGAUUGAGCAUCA | 0.307 ratio
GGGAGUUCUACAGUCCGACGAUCUUGCCAGGUUUCCGUGUUUGUCUCAACUGAACUCUGGGCUGAGUGUUUACCAGGGAGAAGAGAUGUGAAUUAAACAACCUUCCUGUUUAGUGUUACCUGCUUUGUACAAGAAUGAAGUGCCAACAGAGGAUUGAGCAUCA | 0.6 ratio
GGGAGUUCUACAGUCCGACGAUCGAGAGAGUGGAUGGCCCCAAGCACAGUCUCCUUAUGCGUUGAAUAUUGCCAAAUGCUCUUUCUGAAAAUGCUGAAUUGCCUUUUUUGUUUGCAUCCUUUAUUUUUAAUAUUCAUAAUGUCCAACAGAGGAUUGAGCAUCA | 0.384 ratio
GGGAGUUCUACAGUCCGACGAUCGCCCACAGGUGCGGCCUCCGCCCGGCCGUGGGCUACGAGCUGAACCCCUGGCUGGUGGCGCUGGCGCGGCUGCACGCCUGGAGGGCCGGCUGUGCCGGCAGCGUCUGCUAUCGCCGCAAGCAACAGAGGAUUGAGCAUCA | 0.0734 ratio
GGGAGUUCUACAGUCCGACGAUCGCAGCUGGGCAUUGCAGAGGACCUCAAGGACCGGGCAGCAGAGGGCCGUGCAUCCUCCAAUUUGGGGAUAAUCCACCAGAUGAAAGGCGAUUAUGACACAGCCCUGAAGCUCCACAAGACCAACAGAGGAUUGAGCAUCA | 0.101 ratio
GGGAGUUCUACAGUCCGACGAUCUGUUUUGUUAUUGCCUGGAUAUAUGGCGGUGAUAACUUAUAUGACGGUAUUGAGGACAUGAUUGGCUAUCGGCCUGGGCCCUGGAUGAAGUACAGCUGGGCUGUCAUCACUCCAGCUCUUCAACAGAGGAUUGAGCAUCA | 0.144 ratio
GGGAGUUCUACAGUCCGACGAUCCACGGCAUCCUUUUGAGUUUGAUUUCAUUCCUGGCUUUGUACCUUGUCAUUUCUUCUUGCCCUUCCCACACGCAUCCCCUUCCCUCCGCUUGCCGCACAUGUACUCAGUGGUGCUGUGCUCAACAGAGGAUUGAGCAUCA | 0.327 ratio
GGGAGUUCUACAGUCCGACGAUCACGUCCUUGGCAUGGCACCCGACUCAUCCCAGUACCCUGGCUGUGGGCUCCAAAGGGGGAGAUAUUAUGAUCUGGAACUUUGGCAUCAAGGACAAACCUAUCUUCCUUAAAGGGAUUGGACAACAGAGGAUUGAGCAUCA | 0.28 ratio

Block 4 — technique: RNA Bind-n-Seq; molecule type: RNA; matrix: in vitro; tested at: 15 pmol; notes: 4-mer, random 30-nt RNA, single round; together with: 3 µM RocA, 2 mM AMP-PNP; relative to: mean of 4-mers; reading: higher = stronger binding
Target: Eukaryotic initiation factor 4A-I (EIF4A1, Homo sapiens, UniProt P60842, residues 1-406, full length assumed)
Sequence of UniProt P60842 (whole entry, looked up): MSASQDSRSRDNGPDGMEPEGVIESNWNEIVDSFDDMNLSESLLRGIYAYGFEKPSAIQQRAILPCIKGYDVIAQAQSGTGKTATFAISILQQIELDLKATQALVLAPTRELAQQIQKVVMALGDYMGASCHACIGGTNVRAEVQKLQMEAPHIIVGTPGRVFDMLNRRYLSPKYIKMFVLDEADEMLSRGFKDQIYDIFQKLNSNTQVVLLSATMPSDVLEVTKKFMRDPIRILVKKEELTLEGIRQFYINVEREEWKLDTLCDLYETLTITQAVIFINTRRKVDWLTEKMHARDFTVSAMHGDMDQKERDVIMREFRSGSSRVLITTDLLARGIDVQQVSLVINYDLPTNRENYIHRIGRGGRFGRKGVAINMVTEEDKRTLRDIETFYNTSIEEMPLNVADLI
Oligonucleotide | 4-mer enrichment Z-score
AAUA | 0.832
UUGG | 0.998
GCCA | -0.843
CUGA | 0.0368
UGCG | 0.846
UCAG | -0.874
AUAC | -0.817
UGCA | -0.471

Some of these lines once more (block 2):
Molecule | lacZ reporter activity
B8 (TRAF5 RING domain) | 0
B7 (VPS41 RING domain) | 0
B6 (TRIML1 RING domain) | 0
B11 (TRIM40 RING domain) | 0
B1 (RNF208 RING domain) | 0
